Experimental data pooled from the literature.
Protocols differ between the studies behind these lines. ± gives the spread as reported.
Cell line: RAW264.7

With O=C(CSc1nnc(-c2ccc(NC(=O)c3cccnc3)cc2)o1)Nc1ccccc1Cl the IC50 was 7.76 µM (IL-6 release, inhibitor, ELISA; LPS-stimulated).
Oc1cccc(/C=C/c2ccccc2)c1 has an IC50 of 11.4 mg/L (NO release, inhibitor; LPS-stimulated).
O=C(CSc1nnc(-c2ccc(NC(=O)c3cccnc3)cc2)o1)Nc1ccc(F)cc1 gave an IC50 of greater than 100 µM (NO release, inhibitor, Griess; LPS-stimulated).
CCOC(=O)C1CCC(C(=O)CC(C)=O)C1=O (centres unmarked) has an IC50 of 1.94 ± 0.13 µM (cell viability, CCK-8; 48 h, together with: LPS 1 µg/mL).
O=C(CSc1nnc(-c2ccc(NC(=O)c3cccnc3)cc2)o1)Nc1cccc(Br)c1 gave an IC50 of greater than 100 µM (NO release, inhibitor, Griess; LPS-stimulated).
With C#CCn1c(-c2ccccc2)cc2ccccc21 the IC50 was 44.3 µM (NO release, inhibitor, Griess; LPS-stimulated).
The IC50 of Nn1c(SCC(=O)Nc2ccc([N+](=O)[O-])cc2)nnc1-c1ccc(NC(=O)c2cccnc2)cc1 is reported as 7.05 µM (TNF-α release, inhibitor, ELISA; LPS-stimulated).
With CN(Cc1cnc2nc(N)nc(N)c2n1)c1ccc(C(=O)N[C@@H](CCC(=O)O)C(=O)O)cc1 the IC50 was 1.21 ± 0.13 µM (cell viability, CCK-8; 48 h, together with: LPS 1 µg/mL).
c1ccc2[nH]c(-c3ccsc3)cc2c1 gave an IC50 of 20.4 µM (NO release, inhibitor, Griess; LPS-stimulated).
For COc1cc(/C=C/c2ccc(O)cc2)cc(OC)c1, the IC50 was 9.9 mg/L (NO release, inhibitor; LPS-stimulated).
The IC50 of O=C(CSc1nnc(-c2ccc(NC(=O)c3cccnc3)cc2)o1)Nc1ccc([N+](=O)[O-])cc1 is reported as 0.4 µM (NO release, inhibitor, Griess; LPS-stimulated).
CON=Cc1c(-c2ccccc2)[nH]c2ccccc12 has an IC50 of 22.5 µM (NO release, inhibitor, Griess; LPS-stimulated).
For CC(C)=CCc1c(O)cc(/C=C/c2ccc(O)cc2)cc1O, the IC50 was 4.1 mg/L (NO release, inhibitor; LPS-stimulated).
CC1(C)[C@@H](OC(=O)CCC(=O)O)CC[C@]2(C)[C@H]3C(=O)C=C4[C@@H]5C[C@@](C)(C(=O)O)CC[C@]5(C)CC[C@@]4(C)[C@]3(C)CC[C@@H]12 has an IC50 of 11.4 µM (NO release, inhibitor, Griess; LPS-stimulated).
COc1cccc(/C=C/c2ccc(O)cc2)c1 has an IC50 of 8 mg/L (NO release, inhibitor; LPS-stimulated).
Cc1ccc(NC(=O)CSc2nnc(-c3ccc(NC(=O)c4cccnc4)cc3)o2)cc1 gave an IC50 of 2.43 µM (IL-6 release, inhibitor, ELISA; LPS-stimulated).
COc1cccc(CCc2ccc(O)cc2)c1 gave an IC50 of 20 mg/L (NO release, inhibitor; LPS-stimulated).
O=C(CCNNC(=O)c1ccncc1)NCc1ccccc1 gave an IC50 of greater than 200 mg/L (PGE2 release, inhibitor, ELISA; LPS-stimulated).
For CC(C)=CCc1c(O)cc(/C=C/c2ccccc2)cc1O, the IC50 was 6.5 mg/L (NO release, inhibitor; LPS-stimulated).
The IC50 of CCCCCC1C(=O)C(C(=O)CC(C)=O)CC1CC(=O)OC (centres unmarked) is reported as 2.45 ± 0.2 µM (cell viability, CCK-8; 48 h, together with: LPS 1 µg/mL).

Some of these lines once more:
With C#CCn1c(-c2ccccc2)cc2ccccc21 the IC50 was 44.3 µM (NO release, inhibitor, Griess; LPS-stimulated).
The IC50 of Nn1c(SCC(=O)Nc2ccc([N+](=O)[O-])cc2)nnc1-c1ccc(NC(=O)c2cccnc2)cc1 is reported as 7.05 µM (TNF-α release, inhibitor, ELISA; LPS-stimulated).
With CN(Cc1cnc2nc(N)nc(N)c2n1)c1ccc(C(=O)N[C@@H](CCC(=O)O)C(=O)O)cc1 the IC50 was 1.21 ± 0.13 µM (cell viability, CCK-8; 48 h, together with: LPS 1 µg/mL).
